Measured values from different studies.
Protocols differ between the studies behind these lines. Numbers after ± are the reported error.
folP: Dihydropteroate synthase (folP, Bacteria, UniProt P0AC13)
Chain of UniProt P0AC13 (whole entry, looked up): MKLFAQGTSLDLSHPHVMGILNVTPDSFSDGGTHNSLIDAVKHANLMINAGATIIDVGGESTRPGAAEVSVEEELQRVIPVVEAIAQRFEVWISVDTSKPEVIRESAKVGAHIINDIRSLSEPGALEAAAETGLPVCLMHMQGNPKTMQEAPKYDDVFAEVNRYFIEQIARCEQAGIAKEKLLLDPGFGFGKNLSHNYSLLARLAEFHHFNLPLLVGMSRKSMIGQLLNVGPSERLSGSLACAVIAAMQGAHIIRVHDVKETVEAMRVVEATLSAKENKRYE
Chain of UniProt P35218 (whole entry, looked up): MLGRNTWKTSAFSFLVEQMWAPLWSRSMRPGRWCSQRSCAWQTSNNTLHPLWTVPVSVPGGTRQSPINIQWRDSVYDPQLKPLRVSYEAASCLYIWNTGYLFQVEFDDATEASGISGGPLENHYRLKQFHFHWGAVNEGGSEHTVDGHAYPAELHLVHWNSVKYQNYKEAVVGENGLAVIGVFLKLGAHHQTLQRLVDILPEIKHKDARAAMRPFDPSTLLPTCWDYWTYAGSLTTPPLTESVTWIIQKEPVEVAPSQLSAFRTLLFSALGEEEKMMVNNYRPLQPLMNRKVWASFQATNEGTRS
Chain of UniProt Q8WTQ7 (whole entry, looked up): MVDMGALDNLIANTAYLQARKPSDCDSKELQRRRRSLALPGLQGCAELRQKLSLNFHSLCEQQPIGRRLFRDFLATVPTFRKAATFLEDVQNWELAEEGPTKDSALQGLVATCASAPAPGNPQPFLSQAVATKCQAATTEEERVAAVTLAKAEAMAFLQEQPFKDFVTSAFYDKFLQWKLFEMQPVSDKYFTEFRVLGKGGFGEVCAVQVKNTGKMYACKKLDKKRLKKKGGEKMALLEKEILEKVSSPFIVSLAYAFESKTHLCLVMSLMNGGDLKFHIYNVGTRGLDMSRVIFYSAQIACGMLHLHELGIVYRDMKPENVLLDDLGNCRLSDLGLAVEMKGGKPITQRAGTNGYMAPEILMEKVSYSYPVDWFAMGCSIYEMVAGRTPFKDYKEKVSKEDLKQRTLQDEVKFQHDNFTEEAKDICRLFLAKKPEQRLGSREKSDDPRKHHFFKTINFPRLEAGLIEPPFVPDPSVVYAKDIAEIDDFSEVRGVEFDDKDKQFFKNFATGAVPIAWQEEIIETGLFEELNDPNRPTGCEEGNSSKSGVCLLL

SMILES	target	assay	setting	Kd
Cc1c[nH]c2nccc(-c3ccc(C(=O)N[C@@H]4c5c(F)cc(C(F)F)cc5C[C@@H]4O)cn3)c12	GRK7 (Homo sapiens, UniProt Q8WTQ7)	binding, competition with immobilised ligand	–	0.385 µM
Nc1nc2[nH]nc(CCC(=O)O)c(=O)c2c(=O)[nH]1	folP	binding, SPR	–	0.0783 µM
C=CC(=O)N1C[C@H](C)N(c2nc(OC[C@@]34CCCN3C[C@H](F)C4)nc3c(F)c(-c4ccc(F)c5sc(N)c(C#N)c45)c(C(F)(F)F)cc23)C[C@H]1C	GTPase KRas, GDP-bound (KRAS, Homo sapiens, UniProt P01116, G13D)	SPR	–	0.00105 ± 0.00025 µM
NCCCC[C@H](NC(=O)[C@H](C/C=C/C[C@H](NC(=O)[C@@H]1CCCN1)C(=O)N[C@@H](CCCCN)C(=O)NCCCN)NC(=O)[C@@H]1CCCN1)C(=O)NCCCN	(CAG)10 RNA	SPR	–	0.273 µM
Cn1nc(COC(=O)c2ccccc2)c(=O)c2c(=O)[nH]c(N)nc21	folP	binding, SPR	–	0.0022 µM
CCc1nc2cc3ccccc3cc2cc1C(=O)N[C@@H](CCCCN)C(=O)N[C@@H](C/C=C/C[C@H](NC(=O)[C@H](CCCCN)NC(=O)c1cc2cc3ccccc3cc2nc1CC)C(=O)N1CCC[C@H]1C(=O)NCCCN)C(=O)N1CCC[C@H]1C(=O)NCCCN	(CAG)10 RNA	SPR	–	0.298 µM
NS(=O)(=O)c1cc(C(=O)NCCCC(=O)O)c(NC2CCCCC2)cc1Cl	CA5A (Homo sapiens, UniProt P35218)	–	pH 7	100 µM
CCCC[C@@H]1NC(=O)[C@H](Cc2ccc(O)cc2)NC(=O)[C@@H]2CCCN2C(=O)[C@H](CC(=O)O)NC(=O)[C@H](C)NC(=O)[C@H](Cc2ccccc2)NC(=O)[C@@H]2CSCCC(=O)N3CN(CN(C3)C(=O)CCSC[C@@H](C(=O)N[C@@H](C)C(N)=O)NC1=O)C(=O)CCSC[C@H](NC(C)=O)C(=O)N[C@@H](CC(C)(C)C)C(=O)N1CCC[C@H]1C(=O)N[C@@H](CCC(=O)O)C(=O)N[C@H](CCCCNC(=O)CCc1cn(CCOCCOCCOCCN(CCOCCOCCOCCC(=O)N[C@H]3CSCCC(=O)N4CN5CN(C4)C(=O)CCSC[C@H](NC(=O)[C@@H](CC(=O)O)NC(=O)[C@H](Cc4cccc6ccccc46)NC(=O)[C@@H]4CCCN4C3=O)C(=O)N[C@@H](CCSC)C(=O)N[C@@H](CCCCNC(=N)N)C(=O)N[C@@H](CC(=O)O)C(=O)N[C@@H](Cc3c[nH]c4ccccc34)C(=O)N[C@@H](CO)C(=O)N[C@@H]([C@@H](C)O)C(=O)N3CCC[C@H]3C(=O)N3C[C@H](O)C[C@H]3C(=O)N[C@@H](Cc3c[nH]c4ccccc34)C(=O)N[C@H](C(N)=O)CSCCC5=O)CCOCCOCCOCCn3cc(CCC(=O)NCCCC[C@H]4NC(=O)[C@H](CCC(=O)O)NC(=O)[C@@H]5CCCN5C(=O)[C@H](CC(C)(C)C)NC(=O)[C@@H](NC(C)=O)CSCCC(=O)N5CN6CN(C5)C(=O)CCSC[C@H](NC(=O)[C@H](Cc5ccc(O)cc5)NC(=O)[C@@H]5CCCN5C4=O)C(=O)N[C@@H](Cc4ccccc4)C(=O)N[C@@H](C)C(=O)N[C@@H](CC(=O)O)C(=O)N4CCC[C@H]4C(=O)N[C@@H](Cc4ccc(O)cc4)C(=O)N[C@@H](CCCC)C(=O)N[C@H](C(=O)N[C@@H](C)C(N)=O)CSCCC6=O)nn3)nn1)C(=O)N1CCC[C@H]1C(=O)N[C@@H](Cc1ccc(O)cc1)C(=O)N2	Cell adhesion molecule 2 (CADM2, Homo sapiens, UniProt Q8N3J6)	SPR	–	> 0.2 µM

A few entries again:
SMILES	target	assay	setting	Kd
Cn1nc(COC(=O)c2ccccc2)c(=O)c2c(=O)[nH]c(N)nc21	folP	binding, SPR	–	0.0022 µM
